Results collected from several papers.
Parts stem from different laboratories: compare values within a part only.
Chain of UniProt P08922 (whole entry, looked up): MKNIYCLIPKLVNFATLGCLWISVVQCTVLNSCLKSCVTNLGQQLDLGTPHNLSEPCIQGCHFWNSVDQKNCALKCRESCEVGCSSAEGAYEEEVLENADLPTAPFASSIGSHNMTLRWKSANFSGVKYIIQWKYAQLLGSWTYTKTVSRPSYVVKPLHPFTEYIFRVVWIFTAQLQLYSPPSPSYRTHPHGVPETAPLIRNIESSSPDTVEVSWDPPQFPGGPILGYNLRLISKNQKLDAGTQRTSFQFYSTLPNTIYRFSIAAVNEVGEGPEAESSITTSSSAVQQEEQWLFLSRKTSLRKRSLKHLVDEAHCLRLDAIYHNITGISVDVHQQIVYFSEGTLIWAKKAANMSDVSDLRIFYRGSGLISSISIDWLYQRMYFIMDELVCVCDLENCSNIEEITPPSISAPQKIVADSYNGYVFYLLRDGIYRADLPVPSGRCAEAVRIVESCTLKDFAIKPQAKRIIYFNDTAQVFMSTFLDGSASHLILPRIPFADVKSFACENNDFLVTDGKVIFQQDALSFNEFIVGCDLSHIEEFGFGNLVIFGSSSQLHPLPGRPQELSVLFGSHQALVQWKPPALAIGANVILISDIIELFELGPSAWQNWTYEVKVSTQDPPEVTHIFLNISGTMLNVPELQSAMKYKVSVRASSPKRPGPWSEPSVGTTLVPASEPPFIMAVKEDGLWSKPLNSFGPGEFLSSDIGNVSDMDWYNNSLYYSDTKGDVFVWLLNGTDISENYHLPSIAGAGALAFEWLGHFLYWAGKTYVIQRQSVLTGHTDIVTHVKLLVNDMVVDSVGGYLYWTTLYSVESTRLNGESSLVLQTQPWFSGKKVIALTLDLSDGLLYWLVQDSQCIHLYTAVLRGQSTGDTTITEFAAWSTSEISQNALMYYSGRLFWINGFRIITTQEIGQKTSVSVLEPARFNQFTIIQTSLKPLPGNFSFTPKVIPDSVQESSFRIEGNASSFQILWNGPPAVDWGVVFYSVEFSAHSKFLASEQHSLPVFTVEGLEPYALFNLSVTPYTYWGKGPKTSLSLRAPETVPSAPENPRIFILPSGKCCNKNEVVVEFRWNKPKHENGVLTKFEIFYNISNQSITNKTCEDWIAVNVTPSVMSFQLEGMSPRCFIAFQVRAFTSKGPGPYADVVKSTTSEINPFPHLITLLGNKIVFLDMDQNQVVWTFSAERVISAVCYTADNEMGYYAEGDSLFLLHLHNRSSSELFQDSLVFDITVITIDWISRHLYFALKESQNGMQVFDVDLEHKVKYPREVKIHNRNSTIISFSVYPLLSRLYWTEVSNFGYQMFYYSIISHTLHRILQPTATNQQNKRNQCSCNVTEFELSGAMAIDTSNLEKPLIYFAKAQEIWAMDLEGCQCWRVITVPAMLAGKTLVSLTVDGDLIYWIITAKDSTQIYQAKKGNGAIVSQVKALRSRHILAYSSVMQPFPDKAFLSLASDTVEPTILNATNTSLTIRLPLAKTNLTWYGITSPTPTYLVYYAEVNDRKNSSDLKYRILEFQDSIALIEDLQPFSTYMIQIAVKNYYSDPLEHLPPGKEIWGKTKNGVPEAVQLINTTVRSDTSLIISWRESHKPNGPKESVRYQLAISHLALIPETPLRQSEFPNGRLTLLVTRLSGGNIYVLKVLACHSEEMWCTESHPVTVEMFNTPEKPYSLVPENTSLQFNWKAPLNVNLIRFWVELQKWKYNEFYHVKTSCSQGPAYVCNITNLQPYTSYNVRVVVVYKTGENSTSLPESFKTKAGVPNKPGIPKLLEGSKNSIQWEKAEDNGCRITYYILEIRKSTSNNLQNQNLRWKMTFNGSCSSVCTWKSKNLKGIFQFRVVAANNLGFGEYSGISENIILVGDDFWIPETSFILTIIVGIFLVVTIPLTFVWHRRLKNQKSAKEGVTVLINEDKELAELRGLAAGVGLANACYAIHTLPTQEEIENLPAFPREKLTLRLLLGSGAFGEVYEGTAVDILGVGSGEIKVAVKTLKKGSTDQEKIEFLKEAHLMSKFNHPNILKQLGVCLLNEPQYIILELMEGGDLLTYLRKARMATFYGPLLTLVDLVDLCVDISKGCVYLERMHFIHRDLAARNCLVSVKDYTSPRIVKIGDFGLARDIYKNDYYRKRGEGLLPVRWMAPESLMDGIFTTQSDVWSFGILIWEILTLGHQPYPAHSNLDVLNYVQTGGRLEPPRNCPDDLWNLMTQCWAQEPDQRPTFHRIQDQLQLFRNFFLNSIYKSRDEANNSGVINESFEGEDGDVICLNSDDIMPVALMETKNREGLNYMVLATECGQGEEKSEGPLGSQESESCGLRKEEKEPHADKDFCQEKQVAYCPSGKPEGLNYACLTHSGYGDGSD
Chain of UniProt P00519 (whole entry, unmodified, looked up): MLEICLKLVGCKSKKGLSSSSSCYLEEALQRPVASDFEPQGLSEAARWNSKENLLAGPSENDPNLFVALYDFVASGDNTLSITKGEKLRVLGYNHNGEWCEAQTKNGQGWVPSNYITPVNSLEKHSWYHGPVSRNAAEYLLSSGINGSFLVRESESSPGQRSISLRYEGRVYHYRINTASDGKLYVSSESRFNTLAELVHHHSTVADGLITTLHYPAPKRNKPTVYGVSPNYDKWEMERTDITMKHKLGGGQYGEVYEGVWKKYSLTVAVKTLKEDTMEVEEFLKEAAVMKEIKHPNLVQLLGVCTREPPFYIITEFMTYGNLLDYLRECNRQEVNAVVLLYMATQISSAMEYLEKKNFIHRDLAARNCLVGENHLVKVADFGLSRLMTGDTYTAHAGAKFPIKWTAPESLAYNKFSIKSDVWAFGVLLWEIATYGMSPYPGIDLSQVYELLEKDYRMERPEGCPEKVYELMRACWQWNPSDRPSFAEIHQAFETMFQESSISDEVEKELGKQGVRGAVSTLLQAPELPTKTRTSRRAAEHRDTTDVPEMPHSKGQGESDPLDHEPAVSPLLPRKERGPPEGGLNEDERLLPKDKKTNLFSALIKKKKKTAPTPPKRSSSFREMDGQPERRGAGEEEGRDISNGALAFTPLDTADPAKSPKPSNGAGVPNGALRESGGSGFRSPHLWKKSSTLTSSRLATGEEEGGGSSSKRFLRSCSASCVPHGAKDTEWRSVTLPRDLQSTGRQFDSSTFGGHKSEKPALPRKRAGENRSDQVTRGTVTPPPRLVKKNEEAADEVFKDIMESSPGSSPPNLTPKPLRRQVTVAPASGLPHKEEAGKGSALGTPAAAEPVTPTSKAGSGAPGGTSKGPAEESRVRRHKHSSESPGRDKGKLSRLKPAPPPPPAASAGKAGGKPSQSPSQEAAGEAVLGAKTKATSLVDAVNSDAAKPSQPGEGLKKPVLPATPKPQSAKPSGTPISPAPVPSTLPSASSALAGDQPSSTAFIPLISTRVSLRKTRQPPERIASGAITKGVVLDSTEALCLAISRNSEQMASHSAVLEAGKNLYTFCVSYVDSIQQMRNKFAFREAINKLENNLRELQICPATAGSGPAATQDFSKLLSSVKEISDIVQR
Chain of UniProt Q13131 (whole entry, looked up): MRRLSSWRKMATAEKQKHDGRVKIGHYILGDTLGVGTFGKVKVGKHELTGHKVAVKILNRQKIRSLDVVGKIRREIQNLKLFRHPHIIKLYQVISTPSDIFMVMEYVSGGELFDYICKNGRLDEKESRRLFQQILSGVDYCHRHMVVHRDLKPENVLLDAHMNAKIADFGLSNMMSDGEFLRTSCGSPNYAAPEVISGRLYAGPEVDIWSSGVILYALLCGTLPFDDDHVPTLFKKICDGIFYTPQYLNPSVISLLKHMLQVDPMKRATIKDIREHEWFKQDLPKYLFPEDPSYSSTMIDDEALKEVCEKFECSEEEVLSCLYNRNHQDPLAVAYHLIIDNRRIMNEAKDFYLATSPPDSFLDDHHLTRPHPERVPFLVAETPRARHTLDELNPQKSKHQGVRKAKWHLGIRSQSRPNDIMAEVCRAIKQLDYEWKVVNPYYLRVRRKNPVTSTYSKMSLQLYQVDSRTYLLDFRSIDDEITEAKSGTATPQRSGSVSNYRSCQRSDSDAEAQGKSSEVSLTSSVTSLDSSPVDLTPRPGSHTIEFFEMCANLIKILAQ

Sample 1
Target: Interferon regulatory factor 3, full length, phosphomimetic (IRF3, Homo sapiens, UniProt Q14653, residues 1-427, S386D/S396D/S398D/S402D/T404D/S405D)
Chain of UniProt Q14653 (whole entry, unmodified, looked up): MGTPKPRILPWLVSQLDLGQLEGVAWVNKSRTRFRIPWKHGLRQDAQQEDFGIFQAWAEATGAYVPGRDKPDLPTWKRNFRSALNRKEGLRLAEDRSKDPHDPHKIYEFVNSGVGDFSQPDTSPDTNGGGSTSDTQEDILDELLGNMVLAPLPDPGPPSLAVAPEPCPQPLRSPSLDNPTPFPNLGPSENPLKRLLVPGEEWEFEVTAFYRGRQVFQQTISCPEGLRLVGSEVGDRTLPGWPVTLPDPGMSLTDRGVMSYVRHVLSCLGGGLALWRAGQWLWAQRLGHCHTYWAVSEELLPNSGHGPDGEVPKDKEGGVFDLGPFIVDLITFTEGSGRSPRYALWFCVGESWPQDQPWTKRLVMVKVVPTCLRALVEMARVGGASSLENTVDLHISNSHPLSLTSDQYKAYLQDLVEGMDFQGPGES
Technique: protein-binding microarray
Molecule type: double-stranded DNA, one strand shown
Medium: in vitro
Tested at: 2540 nM top
Notes: 60-bp whole probe
Added: salmon DNA 0.4 mg/ml
Reference: random background probes
Reading: higher = stronger binding
Endpoint: fitted relative affinity
Shared flanks, not repeated: GCCTAGCAC … GTCTTGATTCGCTTGACGCTGCTG
TTACGACTGGACTTTCGGTTAGTGCTA: 1.06 z-score
GACGAACTGGGGTTTGGAGACGTGCTA: -0.476 z-score
TTCCCTCTCCCCTCTTGTGCTGTGCTA: 1.24 z-score
TTAGGACTGGGTATCGGATAGTGCTAG: 0.242 z-score
TCAATTTTCGTTTTGTGACTGTGCTAG: 3.96 z-score
GGTGGTCTGGGACCCTCCCCGTGCTAG: -1.14 z-score
GACGGACTGCGTATCCTGACGTGCTAG: -0.0429 z-score
TGCTGTGTACATCTCTCTTAGTGCTAG: 0.108 z-score

Sample 2
Target: Serine/threonine-protein kinase PLK3 (PLK3, Homo sapiens, UniProt Q9H4B4)
Chain of UniProt Q9H4B4 (whole entry, looked up): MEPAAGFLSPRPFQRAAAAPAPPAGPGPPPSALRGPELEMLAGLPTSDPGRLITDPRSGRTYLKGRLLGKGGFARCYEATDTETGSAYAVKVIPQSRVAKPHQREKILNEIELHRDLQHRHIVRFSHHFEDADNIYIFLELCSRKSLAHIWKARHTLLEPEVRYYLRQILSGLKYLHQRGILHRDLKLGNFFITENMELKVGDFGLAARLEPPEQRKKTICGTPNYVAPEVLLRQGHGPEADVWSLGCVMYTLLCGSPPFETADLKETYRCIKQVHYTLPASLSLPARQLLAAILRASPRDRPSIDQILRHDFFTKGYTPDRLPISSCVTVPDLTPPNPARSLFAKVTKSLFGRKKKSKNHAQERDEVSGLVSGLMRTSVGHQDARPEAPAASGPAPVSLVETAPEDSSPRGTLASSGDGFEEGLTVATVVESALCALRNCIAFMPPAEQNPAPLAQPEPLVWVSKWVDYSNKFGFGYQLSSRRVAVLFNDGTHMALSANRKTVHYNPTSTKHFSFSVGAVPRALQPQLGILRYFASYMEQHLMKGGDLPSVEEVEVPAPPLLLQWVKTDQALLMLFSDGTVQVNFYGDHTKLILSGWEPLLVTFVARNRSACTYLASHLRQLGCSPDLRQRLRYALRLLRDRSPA
Observed: enzyme activity
Mode: inhibitor
Tested at: 0.5 µM
Reference: control
Endpoint: remaining activity
CNC(=O)c1cc(Oc2ccc(NC(=O)Nc3ccc(Cl)c(C(F)(F)F)c3)cc2)ccn1: 99.3%
CO[C@H]1C[C@@H]2CC[C@@H](C)[C@@](O)(O2)C(=O)C(=O)N2CCCC[C@H]2C(=O)O[C@H]([C@H](C)C[C@@H]2CC[C@@H](O)[C@H](OC)C2)CC(=O)[C@H](C)/C=C(\C)[C@@H](O)[C@@H](OC)C(=O)[C@H](C)C[C@H](C)/C=C/C=C/C=C/1C: 96.2%
COc1ccc(C(=O)Nc2sc3c(c2C(N)=O)CCCC3)cc1OC: 95%
CCOC(=O)c1c(C)[nH]c(/C=C2\C(=O)Nc3ccccc32)c1C: 97.5%
Cc1ccc(Nc2nccc(N(C)c3ccc4c(C)n(C)nc4c3)n2)cc1S(N)(=O)=O: 101%
O=S(=O)(c1cccc2cnccc12)N1CCCNCC1: 102%
COc1cc2ncnc(Nc3ccc(Oc4ccccc4)cc3)c2cc1OC: 97.1%
C#Cc1cccc(Nc2ncnc3cc(OCCOC)c(OCCOC)cc23)c1: 102%
O=C1NC(=O)C(c2cn(CCCO)c3ncccc23)=C1c1cnccn1: 91.1%
COc1ccc(CNC(=O)Nc2ncc([N+](=O)[O-])s2)cc1: 101%
O=C1NC(=O)C(c2cn(CCCn3ccnc3)c3ccccc23)=C1Nc1ccccc1: 99.8%
Cc1ccc(NC(=O)c2ccc(CN3CCN(C)CC3)cc2)cc1Nc1nc(-c2cccnc2)cs1: 101%
Nc1ncnc2n[nH]c(Nc3ccc(F)cc3)c12: 98%

Sample 3
Compound: O=C(O)[C@@H]1[C@@H](Cn2nnc3ccccc3c2=O)CC[C@H]1C(=O)c1ccc(OCCC2CCOCC2)cc1
Tested at: 1 µM
Endpoint: remaining binding
Tyrosine-protein kinase ABL1, phosphorylated (ABL1, Homo sapiens, UniProt P00519, F317I); binding: 100%
MARK1 (Homo sapiens, UniProt Q9P0L2); cell-free assay, competition with immobilised ligand: 100%
MAP3K7 (Homo sapiens, UniProt O43318); cell-free assay, competition with immobilised ligand: 86%
EGFR (Homo sapiens, UniProt P00533, del752-759); cell-free assay, competition with immobilised ligand: 53%
PRKAA1 (Homo sapiens, UniProt Q13131); cell-free assay, competition with immobilised ligand: 100%
Ribosomal protein S6 kinase alpha-4, C-terminal kinase domain (RPS6KA4, Homo sapiens, UniProt O75676); cell-free assay, competition with immobilised ligand: 85%
ROS1 (Homo sapiens, UniProt P08922); cell-free assay, competition with immobilised ligand: 95%

Sample 4
Target: PABPC1L2, full length, GST fusion (mouse, UniProt A0ABA7IW68)
Technique: RNAcompete
Molecule type: RNA
Medium: in vitro
Tested at: 20 nM
Notes: 7-mer, probes averaged, single round
Reference: mean of 7-mers
Reading: higher = stronger binding
Endpoint: 7-mer Z-score
Residues (chain): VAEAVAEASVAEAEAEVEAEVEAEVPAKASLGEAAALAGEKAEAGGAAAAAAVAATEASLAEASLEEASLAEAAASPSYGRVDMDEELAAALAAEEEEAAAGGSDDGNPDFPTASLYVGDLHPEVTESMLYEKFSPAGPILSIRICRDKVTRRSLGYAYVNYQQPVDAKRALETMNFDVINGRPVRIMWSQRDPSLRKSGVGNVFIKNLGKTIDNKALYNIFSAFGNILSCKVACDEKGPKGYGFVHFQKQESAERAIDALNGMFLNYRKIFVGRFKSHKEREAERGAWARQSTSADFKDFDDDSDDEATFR
UCAUUUC: -0.438
GGCCGGG: -0.13
UUGGUAG: -0.19
CAAAAGA: 2.79
CCCUAAC: -0.349
CCAUGCG: -0.229
GGGUCUU: -0.126
GAUAAAU: 1.83
